Assay results from different studies.
Compare with care: the assays were run in different laboratories. Values joined by “and” are separate records of one study, mostly repeats; a detail may differ.

Compound | assay | system | conditions | measurement | value
CC(C)(O)c1cc(Nc2cc(Oc3cn(C4CC4)nc3C3CCOCC3)ccn2)ccn1 | Diarrhea | advanced cancer patients, dose escalation | oral, dose not given, 2 weeks on/off, all causality grade ≥3 | treatment-emergent adverse events | 0%
Cn1ncc(-c2nc(N[C@H]3CC[C@H](N)CC3)ncc2Cl)c1CC1CC1 | measured: diarrhea any grade | human patients phase I | dose not given | adverse event incidence | 40%
C[C@@H](NC(=O)N1C(=O)[C@H](Cc2ccnc(N)c2)[C@H]1C(=O)O)C1CCCCC1 | – | healthy adult Chinese volunteers | continuous intravenous infusion, 1.5 mg/kg/h, 5-day infusion, CTCAE 5.0 grading | abnormal liver function leading to discontinuation | 0%
C[C@]1(CO)Cc2ncn(-c3ccc(C#N)c(Cl)c3)c2C(=O)O1 | – | human | 2 mg single dose | subjects with drug-related orthostatic hypotension | 16.7%
CO[C@H]1C[C@@H]2CC[C@@H](C)[C@@](O)(O2)C(=O)C(=O)N2CCCC[C@H]2C(=O)O[C@H]([C@H](C)C[C@@H]2CC[C@@H](OC(=O)NCCOCCOCCOCCOCCOCCOCCOCCOCCC(=O)N3CCc4cc(Cn5nc(-c6ccc7oc(N)nc7c6)c6c(N)ncnc65)ccc4C3)[C@H](OC)C2)C[C@@H](O)[C@H](C)/C=C(\C)[C@@H](O)[C@@H](OC)C(=O)[C@H](C)C[C@H](C)/C=C/C=C/C=C/1C | measured: gastric haemorrhage leading to dose reduction | patients with advanced solid tumours | intravenous, 1.6 mg/3 mg, grade ≥3, weekly | patients with AE | 0%
C[C@]1(O)C[C@@](N)(c2ccc(-c3nc4n(c3-c3ccccc3)COc3ccncc3-4)cc2)C1 | – | human, advanced or metastatic solid tumours | 16 mg once daily, dose-response cohort | patients with Anemia TEAE | 0%
CCCCCOc1ccc(-c2ccc(-c3ccc(C(=O)N[C@H]4C[C@@H](O)[C@@H](OCC[N+](C)(C)C)NC(=O)[C@@H]5[C@@H](O)[C@@H](C)CN5C(=O)[C@H]([C@@H](C)O)NC(=O)[C@H]([C@H](O)[C@@H](O)c5ccc(O)cc5)NC(=O)[C@@H]5C[C@@H](O)CN5C(=O)[C@H]([C@@H](C)O)NC4=O)cc3)cc2)cc1 | – | adult patients in ICU, plasma | intravenous, 400 mg loading, after first dose, geometric mean | AUC(0-168 h) | 700 µg·h/mL
Nc1nc2cc(-c3ccc4ncc(C(=O)N5CCOCC5)n4c3)ccc2o1 | all-cause decreased appetite, grade ≥3 | patients with advanced solid tumours | dose not given | patients with adverse events | 3%
CCN1CCN(Cc2ccc(Nc3ncc(F)c(-c4cc(F)c5nc6n(c5c4)[C@H](C)CCC6)n3)nc2)CC1 | Phase Ia dose escalation | patients with advanced solid tumours | dose not given, monotherapy, any grade | blood fibrinogen decreased incidence | 33.3%
CC(C)[C@@H]1NC(=O)CNC(=O)[C@H](CC(N)=O)NC(=O)[C@H](CCCNC(=N)N)NC(=O)[C@H](Cc2ccc(O)cc2)NC(=O)[C@H](C(C)C)NC(=O)[C@@H](NC(=O)[C@@H](NC(=O)[C@H](CC(N)=O)NC(=O)[C@H](Cc2c[nH]c3ccccc23)NC(=O)[C@H](C)NC(=O)[C@H](Cc2ccccc2)NC(=O)CN)C(C)C)CSSC[C@@H](C(=O)N[C@@H](Cc2cnc[nH]2)C(=O)N[C@@H](CCCNC(=N)N)C(=O)N[C@@H](CCCNC(=N)N)C(=O)N[C@@H](C)C(=O)N[C@@H](CC(N)=O)C(N)=O)NC(=O)[C@H](C(C)C)NC(=O)[C@H](CCCNC(=N)N)NC1=O | HPLC | trypsin | 2560 µM, 2.00 h, with: trypsin 1 % w/v | remaining peptide | 19.1% and 22.1% and 17.8%
N[C@@H]1c2ccccc2OC12CCN(c1cnc3c(N4CCCc5ncccc54)n[nH]c3n1)CC2 | – | advanced metastatic solid tumour patients | oral, 10 mg once daily, cycle 1, 21 days | dose-limiting toxicity | 0%
COc1cc2c(Oc3ccc4[nH]c(C)cc4c3F)ccnc2cc1OCC1(N)CC1 | – | paediatric recurrent refractory sarcoma | 8 mg | grade 1 or 2 blurred vision | 0%
CCN(CCO)CCCC(C)Nc1ccnc2cc(Cl)ccc12 (centres unmarked) | measured: Chills grade 1 | newly diagnosed glioblastoma patients | oral, 400 mg/dose, with radiotherapy and temozolomide | patients with adverse event | 33%
O=C(Nc1ccccc1)C1CCN(C(=O)Oc2cccnc2)CC1 | measured: skin disorders | healthy women | oral, 100 mg, 9 days | subjects with adverse event | 7.7%

Repeated from above:
Compound | assay | system | conditions | measurement | value
CCN(CCO)CCCC(C)Nc1ccnc2cc(Cl)ccc12 (centres unmarked) | measured: Chills grade 1 | newly diagnosed glioblastoma patients | oral, 400 mg/dose, with radiotherapy and temozolomide | patients with adverse event | 33%
N[C@@H]1c2ccccc2OC12CCN(c1cnc3c(N4CCCc5ncccc54)n[nH]c3n1)CC2 | – | advanced metastatic solid tumour patients | oral, 10 mg once daily, cycle 1, 21 days | dose-limiting toxicity | 0%
